Results from different studies.
Every numbered part comes from another study and shows a few of its results, in no order. “And” joins repeats or separate records; there may be more than shown.
Chain of UniProt P46098 (whole entry, looked up): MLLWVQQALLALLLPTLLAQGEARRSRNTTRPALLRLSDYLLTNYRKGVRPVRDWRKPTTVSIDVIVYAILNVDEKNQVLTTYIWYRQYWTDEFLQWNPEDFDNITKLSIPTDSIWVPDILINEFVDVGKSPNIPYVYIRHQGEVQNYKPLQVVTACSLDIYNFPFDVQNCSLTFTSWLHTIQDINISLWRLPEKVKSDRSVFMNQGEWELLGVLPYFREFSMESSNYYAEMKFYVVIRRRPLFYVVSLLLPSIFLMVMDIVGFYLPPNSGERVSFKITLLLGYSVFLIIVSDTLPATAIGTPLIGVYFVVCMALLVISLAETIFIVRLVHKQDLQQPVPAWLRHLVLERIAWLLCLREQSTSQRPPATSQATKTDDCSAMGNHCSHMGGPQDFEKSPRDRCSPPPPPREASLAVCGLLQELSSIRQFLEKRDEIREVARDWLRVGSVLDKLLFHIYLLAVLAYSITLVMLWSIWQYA
Chain of UniProt P41595 (whole entry, looked up): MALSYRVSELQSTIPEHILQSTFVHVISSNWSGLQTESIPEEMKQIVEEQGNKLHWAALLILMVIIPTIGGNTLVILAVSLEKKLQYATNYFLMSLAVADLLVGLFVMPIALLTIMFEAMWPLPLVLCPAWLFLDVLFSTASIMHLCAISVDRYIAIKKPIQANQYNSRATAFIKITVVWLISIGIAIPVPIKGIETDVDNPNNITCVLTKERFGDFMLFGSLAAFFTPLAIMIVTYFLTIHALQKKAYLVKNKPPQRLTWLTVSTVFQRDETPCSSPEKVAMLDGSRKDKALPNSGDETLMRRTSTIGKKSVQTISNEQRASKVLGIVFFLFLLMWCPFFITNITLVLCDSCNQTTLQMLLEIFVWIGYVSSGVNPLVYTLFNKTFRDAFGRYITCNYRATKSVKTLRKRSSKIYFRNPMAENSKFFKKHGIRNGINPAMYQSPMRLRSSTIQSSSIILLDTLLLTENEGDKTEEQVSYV
Chain of UniProt P47898 (whole entry, looked up): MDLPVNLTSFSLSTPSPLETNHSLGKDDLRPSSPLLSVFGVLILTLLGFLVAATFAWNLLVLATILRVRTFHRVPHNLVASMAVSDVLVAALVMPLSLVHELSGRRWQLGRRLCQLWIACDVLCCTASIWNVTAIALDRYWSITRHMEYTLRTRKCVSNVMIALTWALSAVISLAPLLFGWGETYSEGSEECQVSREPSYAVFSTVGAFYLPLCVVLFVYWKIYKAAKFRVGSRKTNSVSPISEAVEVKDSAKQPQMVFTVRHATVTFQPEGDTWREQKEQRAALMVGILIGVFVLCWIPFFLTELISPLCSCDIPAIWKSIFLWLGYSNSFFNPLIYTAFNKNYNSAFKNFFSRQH

Block 1
Compound: COc1cc(C(=O)N2CCC(N3CCN(C)CC3)CC2)ccc1Nc1ncc2c(n1)N(C)c1ccccc1C(=O)N2C
target or system	test	test system	setting	inhibition
NEK9 (mouse)	probe labelling, KiNativ, refers to: DIkTLNIFLTK peptide, LYS2 site	brain tissue lysate (mouse)	1 µM, added: ATP acyl-phosphate probe	0.4%
PKD1 mouse	KiNativ profiling	mouse brain lysate	0.1 µM, LYS1 site, added: ADP acyl phosphate probe	-7.9%
human PBMC	probe labeling, inhibitor, KiNativ profiling	cell lysate	concentration not given, JAK1 domain 2, activation loop site, added: ATP acyl-phosphate probe	5.7% and -0.5%
ILK (mouse)	probe labelling, KiNativ, refers to: WQGNDIVVkVLK peptide, LYS1 site	brain tissue lysate (mouse)	1 µM, added: ATP acyl-phosphate probe	6.4%
human PBMC	probe labeling, inhibitor, KiNativ profiling	cell lysate	concentration not given, ATP site, added: ATP acyl-phosphate probe 1 µM	22.4%
BRSK2 (mouse)	probe labelling, KiNativ ADP probe	mouse brain lysate	0.1 µM, LYS2 labelled site	14.8%
MLK2 (mouse)	probe labelling, KiNativ ADP probe	mouse brain lysate	0.1 µM, LYS1 labelled site	6.9%
human PBMC	probe labeling, inhibitor, KiNativ profiling	cell lysate	concentration not given, domain 2, LYS1 site, added: ADP acyl-phosphate probe 1 µM	33.7%
YSK1 mouse	KiNativ profiling	mouse brain lysate	1 µM, LYS1 site, added: ADP acyl phosphate probe	-2.1%
SLK mouse	KiNativ profiling	mouse brain lysate	1 µM, LYS1 site, added: ATP acyl phosphate probe	-20.3%
MST2 (mouse)	KiNativ ATP probe	mouse brain tissue	1 µM, probe site LYS1	-80.2%

Block 2
SMILES: C=CCc1ccc(O)c(-c2cc(CC=C)ccc2O)c1
Target: Anoctamin-1 (ANO1, Homo sapiens, UniProt Q5XXA6, del476-501)
Chain of UniProt Q5XXA6 (whole entry, unmodified, looked up): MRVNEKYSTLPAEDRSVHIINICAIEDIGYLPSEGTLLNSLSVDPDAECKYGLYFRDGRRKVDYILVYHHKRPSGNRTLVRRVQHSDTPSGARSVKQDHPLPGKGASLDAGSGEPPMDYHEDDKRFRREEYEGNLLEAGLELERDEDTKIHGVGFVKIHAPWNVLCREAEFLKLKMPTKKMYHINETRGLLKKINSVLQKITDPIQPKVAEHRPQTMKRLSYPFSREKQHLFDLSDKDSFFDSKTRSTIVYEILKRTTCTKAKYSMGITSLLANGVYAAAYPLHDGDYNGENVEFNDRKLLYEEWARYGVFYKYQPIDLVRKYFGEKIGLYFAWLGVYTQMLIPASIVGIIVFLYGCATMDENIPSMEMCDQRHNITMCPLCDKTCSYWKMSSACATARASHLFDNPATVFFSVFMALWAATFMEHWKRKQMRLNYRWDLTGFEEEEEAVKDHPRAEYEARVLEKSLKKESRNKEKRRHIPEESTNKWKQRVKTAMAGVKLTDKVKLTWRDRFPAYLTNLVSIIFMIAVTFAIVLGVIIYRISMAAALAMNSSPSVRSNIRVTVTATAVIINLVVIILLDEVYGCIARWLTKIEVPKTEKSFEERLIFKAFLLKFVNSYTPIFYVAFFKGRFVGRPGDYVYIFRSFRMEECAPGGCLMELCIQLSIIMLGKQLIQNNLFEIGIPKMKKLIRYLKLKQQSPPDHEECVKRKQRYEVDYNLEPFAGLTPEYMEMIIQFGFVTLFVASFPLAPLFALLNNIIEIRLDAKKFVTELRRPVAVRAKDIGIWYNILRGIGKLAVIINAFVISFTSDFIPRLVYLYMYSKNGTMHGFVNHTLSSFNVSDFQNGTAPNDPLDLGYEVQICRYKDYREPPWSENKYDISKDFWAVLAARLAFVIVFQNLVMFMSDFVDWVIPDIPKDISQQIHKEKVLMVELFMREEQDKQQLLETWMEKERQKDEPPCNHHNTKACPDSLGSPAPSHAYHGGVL
Observed: chloride current
Method: whole-cell patch clamp
concentration	setting	added	normalised current
100 µM	40 mV, 300 nM free Ca2+	honokiol and magnolol 3 µM	0.021
30 µM	20 mV, 300 nM free Ca2+		0.0257
30 µM	-60 mV, 300 nM free Ca2+		-0.0371
30 µM	0 mV, 300 nM free Ca2+		-0.000379
100 µM	-20 mV, 300 nM free Ca2+		-0.0097
1 µM	-60 mV, 300 nM free Ca2+		-0.0885
10 µM	80 mV, 300 nM free Ca2+		0.436
100 µM	-100 mV, 300 nM free Ca2+		-0.0317

Block 3
Species: human
Matrix: microsomes or S9
Concentration: 2 µM
Time: 0.5 h
SMILES	remaining compound
CN(C)c1ccc(-c2nc3n(c2NC(C)(C)CC(C)(C)C)CCNC3)cc1	19.7%
COc1cccc(NC(=O)Cn2cnc3c(sc4nc5c(cc43)COC(C)(C)C5)c2=O)c1	85.4%
CCOc1ccc(-c2nc(C)c(C(C)=O)n2O)cc1	95.8%
Cc1ccc(-n2ccnc2S(=O)(=O)Cc2noc(C)n2)c(C)c1	85.3%
CCCNC(C)C(=O)Nc1c(C)csc1C(=O)O (stereo not drawn)	83.1%
COC(=O)c1ccc(C(=O)N2CCN(C(C)=O)N(C(=O)C[C@@H](Cc3cc(F)c(F)cc3F)NC(=O)OC(C)(C)C)CC2)cc1	9.35%
CCc1ccc(/N=c2\ncc3c([nH]2)CC(c2ccc(OC)cc2)CC3=O)cc1 (stereo not drawn)	> 100%
CC(C)(C)/C(=C\n1ccnc1)c1ccc(C(C)(C)C)cc1Cl	12.6%
CCn1nc(C)c(CNC(=O)NCCCOC)c1C	> 99%
CCOC(=O)Cc1cc(=O)n2nc(Cc3ccccc3)c(-c3ccccc3)c2[nH]1	55.2%

Further values, each from its own experiment
Concentration: 10 µM
Compound	target or system	observed	method	time	measurement	result
CN([C@@H]1CCc2c(CC(=O)O)c3ccccc3n2C1)S(=O)(=O)c1ccc(F)cc1	HTR3A (Homo sapiens, UniProt P46098)	ligand displacement			inhibition	-3.86%
Cn1cncc1[C@@](O)(COc1ccc(C#N)cc1-c1ccc(OC(F)(F)F)cc1)c1ccc(C#N)cc1	HEK293T		high-content imaging	12 h	membrane-permeable cells	33.1% and 27.8%
COc1cc(-c2cn(C3CCc4ccccc4N(CC(F)(F)F)C3=O)nn2)ccc1-n1ccc(C)n1 (stereo not drawn)	HTR2B (Homo sapiens, UniProt P41595)	binding	radioligand binding		inhibition	6.39%
COc1cc(N[C@@H]2CCCC[C@]2(O)C(F)(F)F)ccc1F	HTR5A (Homo sapiens, UniProt P47898)	ligand displacement			inhibition	-10.9%

Repeated from above (further values, each from its own experiment):
Compound	target or system	observed	method	time	measurement	result
CN([C@@H]1CCc2c(CC(=O)O)c3ccccc3n2C1)S(=O)(=O)c1ccc(F)cc1	HTR3A (Homo sapiens, UniProt P46098)	ligand displacement			inhibition	-3.86%
Cn1cncc1[C@@](O)(COc1ccc(C#N)cc1-c1ccc(OC(F)(F)F)cc1)c1ccc(C#N)cc1	HEK293T		high-content imaging	12 h	membrane-permeable cells	33.1% and 27.8%
COc1cc(-c2cn(C3CCc4ccccc4N(CC(F)(F)F)C3=O)nn2)ccc1-n1ccc(C)n1 (stereo not drawn)	HTR2B (Homo sapiens, UniProt P41595)	binding	radioligand binding		inhibition	6.39%
COc1cc(N[C@@H]2CCCC[C@]2(O)C(F)(F)F)ccc1F	HTR5A (Homo sapiens, UniProt P47898)	ligand displacement			inhibition	-10.9%
